Experimental data from different studies.
Each numbered part is a random draw from the data of one study; scales do not carry over between parts. Positions count from the first letter of the parent shown.

Study 1 — method: aptamer microarray, sandwich; form: DNA with 2'F-ANA; medium: in vitro; tested at: 200 nM; together with: Cy3 exosite-II aptamer, 400 nM; direction: higher = stronger binding; sequence: GGTTGGTGTGGTTGG
Target: Prothrombin, mature alpha-thrombin (F2, Homo sapiens, UniProt P00734)
Setting: whole 15-mer aptamer, many near background
For `2'F-ANA at 4 10 13`, “mean fluorescence intensity” read 67 a.u.
`2'F-ANA at 3 5 6 10 12` — result for “mean fluorescence intensity”: 60.6 a.u.
`2'F-ANA at 1 3 4 6 7 8 9 11 12 14 15` — result for “mean fluorescence intensity”: 77.1 a.u.
`2'F-ANA at 4 5 9 10 11 12 13 14 15`: “mean fluorescence intensity” 50.3 a.u.
Under “mean fluorescence intensity”, `2'F-ANA at 1 2 3 5 6 7 8 9 12 13` is recorded as 101 a.u.
`2'F-ANA at 2 3 5 6 8 12 15`: “mean fluorescence intensity” 240 a.u.
`2'F-ANA at 2 3 5 7 10 11 13` — result for “mean fluorescence intensity”: 49.5 a.u.
For `2'F-ANA at 2 4 6 7 8 12 13 15`, “mean fluorescence intensity” read 351 a.u.
`2'F-ANA at 2 4 5 8 9 10 12`: “mean fluorescence intensity” 54.4 a.u.
`2'F-ANA at 1 4 11 15`: “mean fluorescence intensity” 107 a.u.
For `2'F-ANA at 1 3 4 5 6 7 9 10 11 14 15`, “mean fluorescence intensity” read 50.8 a.u.
`2'F-ANA at 2 3 5 6 7 8 10 11 15`: “mean fluorescence intensity” 56.2 a.u.
Under “mean fluorescence intensity”, `2'F-ANA at 1 4 5 6 7 14 15` is recorded as 46 a.u.
For `2'F-ANA at 1 6 7 8 10 12 14 15`, “mean fluorescence intensity” read 50.1 a.u.
`2'F-ANA at 1 2 3 7 8 9 10 11 13 14 15` — result for “mean fluorescence intensity”: 61.5 a.u.
`2'F-ANA at 1 2 4 6 7 9 11 13 15` — result for “mean fluorescence intensity”: 71.7 a.u.
Under “mean fluorescence intensity”, `2'F-ANA at 2 3 4 6 11 12 13 14` is recorded as 258 a.u.
`2'F-ANA at 1 7 8 9 14`: “mean fluorescence intensity” 64.3 a.u.
`2'F-ANA at 1 3 6 7 8 10 11 13 15` — result for “mean fluorescence intensity”: 72.5 a.u.
`2'F-ANA at 4 5 6 8 10 11 12 13 14 15`: “mean fluorescence intensity” 59.3 a.u.
Under “mean fluorescence intensity”, `2'F-ANA at 3 4 5 8 11 12 14` is recorded as 57.6 a.u.
For `2'F-ANA at 2 3 6 7 13 14`, “mean fluorescence intensity” read 394 a.u.
Under “mean fluorescence intensity”, `2'F-ANA at 1 2 3 4 6 7 9 14` is recorded as 55.5 a.u.
Under “mean fluorescence intensity”, `2'F-ANA at 1 2 3 6 7 9 10 11 13 14` is recorded as 55.3 a.u.
Under “mean fluorescence intensity”, `2'F-ANA at 3 4 5 7 8 10 11 13 14 15` is recorded as 54.7 a.u.

Study 2 — target: BATF3, bZIP domain (human); method: DHFR protein complementation; medium: yeast; baseline: wild-type JUN-FOS pair; direction: higher = stronger binding
Setting: single substitutions, most at no-binding floor
Starting sequence: JUN, bZIP domain (human); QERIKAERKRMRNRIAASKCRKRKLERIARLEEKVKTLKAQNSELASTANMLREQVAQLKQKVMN; partner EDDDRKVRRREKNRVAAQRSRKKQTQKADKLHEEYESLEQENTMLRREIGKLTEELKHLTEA
With `S47Q` the binding fitness was 0.224 natural log.
The binding fitness of `K36A` is reported as 0.267 natural log.
`N42I` gave a binding fitness of -0.585 natural log.
For `K39Q`, the binding fitness was 0.125 natural log.
The binding fitness of `A29Q` is reported as 0.147 natural log.
`V35W` has a binding fitness of -0.071 natural log.
For `L31D`, the binding fitness was 0.116 natural log.
`A49S` has a binding fitness of 0.0631 natural log.
`M51P` has a binding fitness of -0.383 natural log.
`K34V` gave a binding fitness of 0.178 natural log.
`E32C` has a binding fitness of -0.0178 natural log.
The binding fitness of `Q41N` is reported as 0.107 natural log.
With `L38K` the binding fitness was 0.0756 natural log.
The binding fitness of `T37P` is reported as -0.326 natural log.
With `R30V` the binding fitness was 0.342 natural log.
For `K36Q`, the binding fitness was 0.191 natural log.
With `A46Q` the binding fitness was 0.144 natural log.
`A29H` gave a binding fitness of 0.169 natural log.
`N42P` gave a binding fitness of -0.842 natural log.
The binding fitness of `N42M` is reported as -0.395 natural log.
`E44P` has a binding fitness of -0.54 natural log.
`N42T` gave a binding fitness of -0.115 natural log.

Study 3 — method: DHFR PCA, deep sequencing; medium: yeast; together with: (+)-ABA 710 µM; baseline: wild-type fitted maximum; direction: higher = stronger binding
Target: ABI1, truncated, D143A, DHFR fusion (Arabidopsis thaliana)
Setting: methotrexate growth selection, single substitutions
Starting sequence: PYL1, truncated, DHFR fusion (Arabidopsis thaliana); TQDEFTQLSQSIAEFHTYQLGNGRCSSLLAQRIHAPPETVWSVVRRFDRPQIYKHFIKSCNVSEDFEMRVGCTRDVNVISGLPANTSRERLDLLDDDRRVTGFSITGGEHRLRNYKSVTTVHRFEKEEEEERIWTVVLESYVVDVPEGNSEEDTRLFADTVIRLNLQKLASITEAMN
`I12M` — result for “relative binding score”: 97.6%.
`E64I` — result for “relative binding score”: 93.2%.
`V121D`: “relative binding score” 8.77%.
For `Q31M`, “relative binding score” read 88.7%.
Under “relative binding score”, `L82M` is recorded as 100%.
`L29T` — result for “relative binding score”: 86%.
`T1Y` — result for “relative binding score”: 98%.
For `W41Y`, “relative binding score” read 79.3%.
Under “relative binding score”, `G148N` is recorded as 93.2%.
Under “relative binding score”, `T17A` is recorded as 93.4%.
`R49H`: “relative binding score” 101%.
For `A35D`, “relative binding score” read 5.05%.
`Q167D`: “relative binding score” 91.7%.
Under “relative binding score”, `E174M` is recorded as 92.1%.
For `A30E`, “relative binding score” read 104%.

Study 4 — target: CCND1, cyclin fold, Cln2 fusion (human); method: yeast growth competition, sequencing; medium: yeast; setting: strong parent motif; baseline: not given; direction: higher = stronger binding
Starting sequence: PKN2 docking peptide (human); VSAVQKLDFSDTM; partner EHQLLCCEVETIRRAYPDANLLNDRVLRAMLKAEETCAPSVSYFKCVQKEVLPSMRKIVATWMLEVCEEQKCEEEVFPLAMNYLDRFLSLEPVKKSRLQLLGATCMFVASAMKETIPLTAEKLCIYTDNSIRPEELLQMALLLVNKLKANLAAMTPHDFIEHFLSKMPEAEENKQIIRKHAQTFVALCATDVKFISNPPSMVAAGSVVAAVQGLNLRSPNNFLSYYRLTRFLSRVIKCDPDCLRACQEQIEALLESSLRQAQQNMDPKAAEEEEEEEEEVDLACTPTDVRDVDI
For `VSAVQKLDFMDTM [S10M]`, “normalised enrichment score” read 1.75.
For `VSAVQKLDVSDTM [F9V]`, “normalised enrichment score” read -0.122.
For `VSACQKLDFSDTM [V4C]`, “normalised enrichment score” read 1.15.
`VSAEQKLDFSDTM [V4E]` — result for “normalised enrichment score”: 0.728.
For `VSAVQKDDFSDTM [L7D]`, “normalised enrichment score” read 0.267.
`VSAVQDLDFSDTM [K6D]`: “normalised enrichment score” 0.759.
For `VSAVQALDFSDTM [K6A]`, “normalised enrichment score” read 1.18.
`VSAVQKLDFVDTM [S10V]`: “normalised enrichment score” 1.44.
`VSAVQHLDFSDTM [K6H]` — result for “normalised enrichment score”: 0.948.
`SSAVQKLDFSDTM [V1S]` — result for “normalised enrichment score”: 2.62.
`VKAVQKLDFSDTM [S2K]` — result for “normalised enrichment score”: 1.7.
For `VSAVAKADFSDTM [Q5A L7A]`, “normalised enrichment score” read 0.1.
`VSAVQKLDFSWTM [D11W]`: “normalised enrichment score” 1.44.
For `VSAVQKLDMSDTM [F9M]`, “normalised enrichment score” read -0.0662.
Under “normalised enrichment score”, `VSAVQKLDFSDTY [M13Y]` is recorded as 2.04.
For `VSAVQKLDGSDTM [F9G]`, “normalised enrichment score” read 0.255.
Under “normalised enrichment score”, `VSAVQKLDRSDTM [F9R]` is recorded as 0.37.
Under “normalised enrichment score”, `VFAVQKLDFSDTM [S2F]` is recorded as 1.61.
`VSAVQKLDFSDTI [M13I]` — result for “normalised enrichment score”: 1.81.
For `VSAVQKLDFSDKM [T12K]`, “normalised enrichment score” read 1.46.
For `VSAVQKLDFSDQM [T12Q]`, “normalised enrichment score” read 2.08.
`FSAVQKLDFSDTM [V1F]`: “normalised enrichment score” 3.04.
`VSAVQKLDFSDTG [M13G]` — result for “normalised enrichment score”: 1.9.
For `VSAVQTLDFSDTM [K6T]`, “normalised enrichment score” read 1.15.
For `VSAVQPLDFSDTM [K6P]`, “normalised enrichment score” read 0.248.

Some of these lines once more (study 2):
`A49S` has a binding fitness of 0.0631 natural log.
`M51P` has a binding fitness of -0.383 natural log.
`K34V` gave a binding fitness of 0.178 natural log.
`E32C` has a binding fitness of -0.0178 natural log.
The binding fitness of `Q41N` is reported as 0.107 natural log.
With `L38K` the binding fitness was 0.0756 natural log.
The binding fitness of `T37P` is reported as -0.326 natural log.
With `R30V` the binding fitness was 0.342 natural log.
For `K36Q`, the binding fitness was 0.191 natural log.
With `A46Q` the binding fitness was 0.144 natural log.
`A29H` gave a binding fitness of 0.169 natural log.
